Results pooled from the literature.
Numbered parts are unrelated; each lists some results of a single study. Positions count from the first letter of the parent shown.
Chain of UniProt O75582 (whole entry, looked up): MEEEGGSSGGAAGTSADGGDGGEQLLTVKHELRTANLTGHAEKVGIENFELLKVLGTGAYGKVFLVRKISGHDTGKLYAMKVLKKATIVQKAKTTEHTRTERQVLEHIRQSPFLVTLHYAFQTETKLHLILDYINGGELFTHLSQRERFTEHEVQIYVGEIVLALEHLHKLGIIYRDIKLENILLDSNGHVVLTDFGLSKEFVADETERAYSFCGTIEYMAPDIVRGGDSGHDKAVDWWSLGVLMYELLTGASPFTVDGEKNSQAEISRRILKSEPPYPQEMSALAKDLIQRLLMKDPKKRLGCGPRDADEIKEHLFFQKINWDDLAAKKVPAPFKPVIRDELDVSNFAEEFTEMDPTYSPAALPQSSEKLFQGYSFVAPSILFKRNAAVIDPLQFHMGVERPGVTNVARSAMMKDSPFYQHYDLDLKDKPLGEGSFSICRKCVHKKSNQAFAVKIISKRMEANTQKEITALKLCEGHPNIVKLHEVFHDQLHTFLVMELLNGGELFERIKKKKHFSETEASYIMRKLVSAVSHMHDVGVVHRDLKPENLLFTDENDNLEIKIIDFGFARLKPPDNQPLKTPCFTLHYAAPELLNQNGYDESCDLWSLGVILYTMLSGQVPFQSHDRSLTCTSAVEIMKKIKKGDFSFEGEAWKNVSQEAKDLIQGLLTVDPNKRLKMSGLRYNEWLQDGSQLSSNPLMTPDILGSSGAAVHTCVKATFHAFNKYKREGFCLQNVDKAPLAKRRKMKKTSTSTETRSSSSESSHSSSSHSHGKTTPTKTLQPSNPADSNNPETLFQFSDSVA
Chain of UniProt P50750 (whole entry, looked up): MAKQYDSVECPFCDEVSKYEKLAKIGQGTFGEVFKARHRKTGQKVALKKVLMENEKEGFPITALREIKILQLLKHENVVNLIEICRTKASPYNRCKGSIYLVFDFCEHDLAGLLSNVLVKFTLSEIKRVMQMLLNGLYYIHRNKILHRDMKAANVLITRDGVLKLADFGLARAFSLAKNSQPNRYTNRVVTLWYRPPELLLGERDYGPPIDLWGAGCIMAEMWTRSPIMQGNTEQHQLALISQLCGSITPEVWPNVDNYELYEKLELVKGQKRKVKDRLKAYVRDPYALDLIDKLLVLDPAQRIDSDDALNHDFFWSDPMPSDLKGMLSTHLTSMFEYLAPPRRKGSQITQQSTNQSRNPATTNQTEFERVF

Study 1
Substitution: T101H
Target: ABI1, truncated, D143A, DHFR fusion (Arabidopsis thaliana)
Technique: DHFR PCA, deep sequencing
Matrix: yeast
Notes: methotrexate growth selection, single substitutions
Relative to: wild-type fitted maximum
Direction: higher = stronger binding
Endpoint: relative binding score
Parent: PYL1, truncated, DHFR fusion (Arabidopsis thaliana); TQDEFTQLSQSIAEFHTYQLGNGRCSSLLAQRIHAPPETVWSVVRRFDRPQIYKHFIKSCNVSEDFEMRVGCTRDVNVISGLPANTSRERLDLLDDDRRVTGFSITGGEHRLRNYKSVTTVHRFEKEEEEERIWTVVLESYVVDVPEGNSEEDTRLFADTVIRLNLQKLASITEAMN
added: (+)-ABA 200 µM: 59.1%
added: (+)-ABA 0.0091 µM: 0.881%
added: (+)-ABA 17 µM: 18.3%
added: (+)-ABA 0 µM: -3.01%
added: (+)-ABA 0.11 µM: -4.77%
added: (+)-ABA 58 µM: 37.8%

Study 2
Target: Sox, HMG box (Pigoraptor chileana)
Technique: Spec-seq
Molecule type: double-stranded DNA, one strand shown
Matrix: in vitro
Tested at: not given
Notes: whole probe, mean of replicates
Relative to: not given
Direction: lower = stronger binding
Endpoint: relative binding energy
Shared flanks, not repeated: GAGTCGTCTCGTCAGCAC … CCGTAGAGCACTCAGGTC
Residues (chain): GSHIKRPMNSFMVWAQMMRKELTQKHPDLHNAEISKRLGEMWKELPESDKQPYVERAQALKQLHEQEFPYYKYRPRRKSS
CATAGGC: -0.37 ln ratio
CATCGCA: 0.633 ln ratio
AAACGTT: -1.41 ln ratio
CATGGTA: 0.496 ln ratio
GCACGTT: 1.26 ln ratio
CATTTTC: 0.394 ln ratio
CATAACG: -0.157 ln ratio
ACACGTT: 0.435 ln ratio

Single results of other studies
COc1ccc2c(O[C@@H]3C[C@H]4C(=O)N[C@]5(C(=O)O)CC5/C=C\CCCCC[C@H](NC(=O)OC5CCCC5)C(=O)N4C3)cc(-c3csc(NC(=O)C(C)C)n3)nc2c1C (stereo partly shown)  remaining binding (Ribosomal protein S6 kinase alpha-5, N-terminal kinase domain (RPS6KA5, Homo sapiens, UniProt O75582); cell-free assay, competition with immobilised ligand; 1 µM): 100%
COc1cc2c(N3CCN(C(=O)Nc4ccc(OC(C)C)cc4)CC3)ncnc2cc1OCCCN1CCCCC1  remaining activity (Cyclin-dependent kinase 9, with cyclin T1 (CDK9, Homo sapiens, UniProt P50750); enzyme activity, inhibitor; 0.5 µM; relative to: control): 100%
